Assay results from different studies.
Compare with care: the assays were run in different laboratories. ± marks the error that the study gave.

Structure (SMILES) | system | setting | how to read | tissue uptake
CCN(CC)c1ccc2c(-c3ccccc3C(=O)OCCOCC[18F])c3ccc(=[N+](CC)CC)cc-3oc2c1 | rat, lung | 60 min | – | 2.06 ± 0.16 %ID/g
O=C(O)CCCN1CCN2CCN(CC1)CC(=O)[O][Al]([18F])[O]C(=O)C2 | Sprague-Dawley rat, renal pedicle ligation, blood | 60 min | – | 13.5 ± 0.7 %ID
COc1ccc(NC(=O)Cn2c(=O)c3ccccc3n(CC(=O)Nc3cc([125I])c(OC)cc3OC)c2=O)cc1 | Wistar rat (normal), thyroid | intravenous, 0.08333 h | – | 0.32 ± 0.11 %ID/g
CCN(CC)c1ccc2c(-c3ccccc3C(=O)OCCC[18F])c3ccc(=[N+](CC)CC)cc-3oc2c1 | rat, muscle | 60 min | – | 0.3 ± 0.01 %ID/g
COc1cc2ccnc(Cc3ccc(O[11CH3])c(OC)c3)c2cc1OC | Sprague-Dawley rats, liver | intravenous, 0.08333 h | – | 3.12 ± 0.256 %ID/g
O=C(c1ccc(F)cc1)C1CCN(C2Cc3c(cccc3OCC[18F])CC2O)CC1 (single isomer, unassigned; (-)) | Sprague-Dawley rat, male, thalamus | 5 min post-injection | – | 0.691 %ID/g
CCNc1cc2[o+]c3cc(NCC)c(C)cc3c(-c3ccccc3C(=O)OCCOCC[18F])c2cc1C | rat, liver | 60 min | – | 0.15 ± 0.02 %ID/g
CN(C)c1ccc(C(=O)NCCCCN2CCN(c3ccccc3O[11CH3])CC2)cc1 | male Sprague Dawley rat, blood | iv, 30 min | reference: untreated | 0.025 %ID/g

Excerpt of the above:
Structure (SMILES) | system | setting | how to read | tissue uptake
CCN(CC)c1ccc2c(-c3ccccc3C(=O)OCCC[18F])c3ccc(=[N+](CC)CC)cc-3oc2c1 | rat, muscle | 60 min | – | 0.3 ± 0.01 %ID/g
